Assay results pooled from the literature.
Several values in a cell are separate wells, animals, samples, runs or records. Numbers after ± are the reported error.
SCN5A: Sodium channel protein type 5 subunit alpha (SCN5A, Homo sapiens, UniProt Q14524)
UniProt Q14524, sequence (whole entry, looked up): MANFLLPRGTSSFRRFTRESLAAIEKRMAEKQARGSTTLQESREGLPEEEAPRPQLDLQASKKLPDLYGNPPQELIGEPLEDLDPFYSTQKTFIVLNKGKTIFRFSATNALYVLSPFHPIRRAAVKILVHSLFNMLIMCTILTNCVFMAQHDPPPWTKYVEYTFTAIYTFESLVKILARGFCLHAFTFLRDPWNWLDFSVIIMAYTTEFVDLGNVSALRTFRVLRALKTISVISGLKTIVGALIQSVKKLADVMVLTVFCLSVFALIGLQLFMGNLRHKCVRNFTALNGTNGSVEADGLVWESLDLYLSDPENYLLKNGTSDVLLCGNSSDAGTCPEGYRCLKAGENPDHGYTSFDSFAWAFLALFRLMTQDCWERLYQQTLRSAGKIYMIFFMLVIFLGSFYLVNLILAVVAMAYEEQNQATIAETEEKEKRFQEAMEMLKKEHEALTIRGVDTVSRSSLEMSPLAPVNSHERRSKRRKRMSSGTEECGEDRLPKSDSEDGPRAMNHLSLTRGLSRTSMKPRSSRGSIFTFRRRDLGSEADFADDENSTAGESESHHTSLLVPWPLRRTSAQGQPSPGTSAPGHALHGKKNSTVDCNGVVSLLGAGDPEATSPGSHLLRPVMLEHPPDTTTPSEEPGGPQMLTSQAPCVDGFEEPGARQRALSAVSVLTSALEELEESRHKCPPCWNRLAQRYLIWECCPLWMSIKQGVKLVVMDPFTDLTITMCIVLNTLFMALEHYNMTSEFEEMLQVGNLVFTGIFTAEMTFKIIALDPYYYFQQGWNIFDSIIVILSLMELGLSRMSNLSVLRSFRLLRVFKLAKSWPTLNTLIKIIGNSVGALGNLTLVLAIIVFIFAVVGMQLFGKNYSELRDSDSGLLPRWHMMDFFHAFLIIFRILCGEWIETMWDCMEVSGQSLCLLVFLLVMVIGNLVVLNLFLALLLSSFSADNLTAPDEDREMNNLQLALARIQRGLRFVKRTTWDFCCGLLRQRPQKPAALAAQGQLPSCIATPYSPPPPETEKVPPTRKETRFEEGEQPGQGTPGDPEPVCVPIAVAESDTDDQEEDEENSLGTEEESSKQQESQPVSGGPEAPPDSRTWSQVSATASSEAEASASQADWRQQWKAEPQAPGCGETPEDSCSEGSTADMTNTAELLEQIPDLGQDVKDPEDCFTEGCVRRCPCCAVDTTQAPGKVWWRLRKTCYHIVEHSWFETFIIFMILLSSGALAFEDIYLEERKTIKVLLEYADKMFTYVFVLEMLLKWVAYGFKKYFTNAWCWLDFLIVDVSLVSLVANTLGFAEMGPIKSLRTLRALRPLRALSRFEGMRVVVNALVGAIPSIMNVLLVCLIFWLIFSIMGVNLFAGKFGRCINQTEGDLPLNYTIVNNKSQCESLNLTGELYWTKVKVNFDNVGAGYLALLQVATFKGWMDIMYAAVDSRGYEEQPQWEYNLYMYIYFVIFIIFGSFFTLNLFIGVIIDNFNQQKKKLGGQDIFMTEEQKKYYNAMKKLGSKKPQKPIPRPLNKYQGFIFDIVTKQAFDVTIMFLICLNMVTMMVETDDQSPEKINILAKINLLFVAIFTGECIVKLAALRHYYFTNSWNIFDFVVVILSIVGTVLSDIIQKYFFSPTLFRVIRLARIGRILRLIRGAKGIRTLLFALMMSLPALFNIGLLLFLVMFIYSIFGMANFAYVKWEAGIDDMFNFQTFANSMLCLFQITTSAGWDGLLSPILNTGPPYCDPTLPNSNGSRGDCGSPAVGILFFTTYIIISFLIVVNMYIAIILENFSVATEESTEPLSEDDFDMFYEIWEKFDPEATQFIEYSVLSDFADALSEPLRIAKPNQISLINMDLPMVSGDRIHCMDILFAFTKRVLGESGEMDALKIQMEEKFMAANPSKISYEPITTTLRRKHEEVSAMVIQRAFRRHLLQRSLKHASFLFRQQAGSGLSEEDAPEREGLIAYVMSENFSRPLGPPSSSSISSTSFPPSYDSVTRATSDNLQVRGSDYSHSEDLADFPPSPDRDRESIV
Tumor necrosis factor receptor superfamily member 9/Nectin-4: Tumor necrosis factor receptor superfamily member 9/Nectin-4 (Homo sapiens, UniProt Q07011+Q96NY8)
UniProt Q07011, sequence (whole entry, looked up): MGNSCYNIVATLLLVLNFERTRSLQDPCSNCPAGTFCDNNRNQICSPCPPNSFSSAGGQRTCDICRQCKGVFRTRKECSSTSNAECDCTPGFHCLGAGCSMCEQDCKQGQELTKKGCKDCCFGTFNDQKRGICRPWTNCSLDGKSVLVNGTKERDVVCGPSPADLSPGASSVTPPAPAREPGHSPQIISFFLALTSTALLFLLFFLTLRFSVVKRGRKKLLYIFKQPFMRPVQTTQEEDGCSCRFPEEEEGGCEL
UniProt Q96NY8, sequence (whole entry, looked up): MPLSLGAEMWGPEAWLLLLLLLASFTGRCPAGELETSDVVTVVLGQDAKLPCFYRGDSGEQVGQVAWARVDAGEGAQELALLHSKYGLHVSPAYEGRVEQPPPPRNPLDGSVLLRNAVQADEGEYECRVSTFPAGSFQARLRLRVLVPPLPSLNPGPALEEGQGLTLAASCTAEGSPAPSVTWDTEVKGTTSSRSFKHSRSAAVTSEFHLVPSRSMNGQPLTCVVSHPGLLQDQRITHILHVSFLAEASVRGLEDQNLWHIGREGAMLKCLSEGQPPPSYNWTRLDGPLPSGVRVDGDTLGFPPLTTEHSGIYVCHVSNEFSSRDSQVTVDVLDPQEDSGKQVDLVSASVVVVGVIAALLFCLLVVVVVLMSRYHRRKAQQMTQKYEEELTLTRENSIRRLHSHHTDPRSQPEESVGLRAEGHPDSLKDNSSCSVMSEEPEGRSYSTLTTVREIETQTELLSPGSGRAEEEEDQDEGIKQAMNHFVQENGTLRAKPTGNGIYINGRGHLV
UniProt Q16853, sequence (whole entry, looked up): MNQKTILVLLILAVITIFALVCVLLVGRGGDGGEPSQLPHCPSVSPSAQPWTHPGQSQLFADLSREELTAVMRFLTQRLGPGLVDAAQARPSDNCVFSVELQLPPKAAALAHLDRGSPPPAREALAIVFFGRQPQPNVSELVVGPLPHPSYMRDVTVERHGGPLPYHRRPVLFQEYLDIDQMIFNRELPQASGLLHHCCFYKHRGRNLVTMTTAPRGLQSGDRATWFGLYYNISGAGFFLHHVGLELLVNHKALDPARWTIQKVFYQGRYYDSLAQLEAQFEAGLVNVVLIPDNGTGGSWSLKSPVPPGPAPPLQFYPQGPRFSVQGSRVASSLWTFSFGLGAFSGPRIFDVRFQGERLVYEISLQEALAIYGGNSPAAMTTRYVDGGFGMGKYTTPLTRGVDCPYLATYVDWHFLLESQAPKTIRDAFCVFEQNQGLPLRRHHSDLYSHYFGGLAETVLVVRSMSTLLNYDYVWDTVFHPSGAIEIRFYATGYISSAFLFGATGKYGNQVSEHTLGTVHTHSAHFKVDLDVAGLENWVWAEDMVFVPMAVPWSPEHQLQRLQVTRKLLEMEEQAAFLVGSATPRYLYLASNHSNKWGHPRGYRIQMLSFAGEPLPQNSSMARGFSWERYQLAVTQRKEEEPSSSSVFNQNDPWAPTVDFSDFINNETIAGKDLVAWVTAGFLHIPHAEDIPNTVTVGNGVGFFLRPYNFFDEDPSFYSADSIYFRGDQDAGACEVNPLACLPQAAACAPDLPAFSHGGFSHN
UniProt P08684, sequence (whole entry, looked up): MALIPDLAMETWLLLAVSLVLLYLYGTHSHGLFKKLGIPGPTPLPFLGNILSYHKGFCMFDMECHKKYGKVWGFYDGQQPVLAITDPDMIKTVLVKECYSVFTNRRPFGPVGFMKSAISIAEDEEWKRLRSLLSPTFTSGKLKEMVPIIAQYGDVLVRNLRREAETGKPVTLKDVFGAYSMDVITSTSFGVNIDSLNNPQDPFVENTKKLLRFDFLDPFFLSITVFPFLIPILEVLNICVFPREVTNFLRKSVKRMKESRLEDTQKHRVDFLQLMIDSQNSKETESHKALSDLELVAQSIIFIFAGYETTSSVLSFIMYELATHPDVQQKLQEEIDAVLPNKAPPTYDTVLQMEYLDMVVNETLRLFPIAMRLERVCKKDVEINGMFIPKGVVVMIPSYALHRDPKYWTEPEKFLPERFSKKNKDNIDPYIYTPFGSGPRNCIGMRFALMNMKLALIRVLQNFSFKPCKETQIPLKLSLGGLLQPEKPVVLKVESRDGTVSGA
UniProt P05177, sequence (whole entry, looked up): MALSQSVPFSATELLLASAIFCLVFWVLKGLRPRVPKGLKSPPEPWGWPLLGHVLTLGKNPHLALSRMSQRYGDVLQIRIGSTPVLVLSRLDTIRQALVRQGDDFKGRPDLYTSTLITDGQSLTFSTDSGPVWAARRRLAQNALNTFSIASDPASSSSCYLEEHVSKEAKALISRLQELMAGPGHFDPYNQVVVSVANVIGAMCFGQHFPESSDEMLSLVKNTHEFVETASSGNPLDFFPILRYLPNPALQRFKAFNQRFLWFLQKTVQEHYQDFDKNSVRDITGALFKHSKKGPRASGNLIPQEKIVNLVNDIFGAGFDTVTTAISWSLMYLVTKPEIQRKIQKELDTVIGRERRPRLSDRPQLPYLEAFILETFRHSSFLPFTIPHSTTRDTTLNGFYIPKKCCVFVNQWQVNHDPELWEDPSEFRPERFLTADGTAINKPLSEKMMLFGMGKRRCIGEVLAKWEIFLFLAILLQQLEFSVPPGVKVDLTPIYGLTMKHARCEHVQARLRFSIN
UniProt P0DMM9, sequence (whole entry, looked up): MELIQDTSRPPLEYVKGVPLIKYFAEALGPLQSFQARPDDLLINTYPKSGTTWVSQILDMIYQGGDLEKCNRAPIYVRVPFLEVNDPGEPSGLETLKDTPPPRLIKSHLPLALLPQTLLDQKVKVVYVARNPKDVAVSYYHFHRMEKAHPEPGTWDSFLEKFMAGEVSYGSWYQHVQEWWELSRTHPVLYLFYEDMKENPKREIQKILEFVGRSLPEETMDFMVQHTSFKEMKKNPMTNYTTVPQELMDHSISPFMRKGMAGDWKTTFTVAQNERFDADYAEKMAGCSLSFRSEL

The Tlast of `CC[C@H]1[C@@H](O)[C@@H]2[C@H](CC[C@]3(C)[C@@H]([C@H](C)CCNC(=O)NS(=O)(=O)c4ccc(C(C)(C)C)cc4)CC[C@@H]23)[C@@]2(C)CC[C@@H](O)C[C@@H]12` is reported as 72 h (Cytochrome P450 3A4 (CYP3A4, Homo sapiens, UniProt P08684); human, plasma; geometric mean).
For `Cc1cccc(C)c1OCC(C)N` (centres unmarked), “recovery from inactivation” read 76.7% (SCN5A; concentration not given, 200 ms).
`Cn1cc(-c2ccc(-c3cncc(Cl)c3N3CCC4(CCNC4=O)CC3)cc2)cn1` — result for “log2 fold change”: -1.02 (COLO 205; gene expression, microarray, item: RSAD2 mRNA; concentration not given, 6 h; reference: untreated cells).
The Emax of `CCCC[C@@H]1NC(=O)[C@H](Cc2ccc(O)cc2)NC(=O)[C@@H]2CCCN2C(=O)[C@H](CC(=O)O)NC(=O)[C@H](C)NC(=O)[C@H](Cc2ccccc2)NC(=O)[C@@H]2CSCCC(=O)N3CN(CN(C3)C(=O)CCSC[C@@H](C(=O)N[C@@H](CNC(=O)CCc3cn(CCOCCOCCOCCOCCOCCOCCOCCOCCOCCOCCOCCOCCOCCOCCOCCOCCOCCOCCOCCOCCOCCOCCOCCNC(=O)N[C@H]4CSCCC(=O)N5CN6CN(C5)C(=O)CCSC[C@H](NC(=O)[C@@H](CC(=O)O)NC(=O)[C@H](Cc5cccc7ccccc57)NC(=O)[C@@H]5CCCN5C4=O)C(=O)N[C@@H](CCSC)C(=O)N[C@@H](CCCCNC(=N)N)C(=O)N[C@@H](CC(=O)O)C(=O)N[C@@H](Cc4c[nH]c5ccccc45)C(=O)N[C@@H](CO)C(=O)N[C@@H]([C@@H](C)O)C(=O)N4CCC[C@H]4C(=O)N4C[C@H](O)C[C@H]4C(=O)N[C@@H](Cc4c[nH]c5ccccc45)C(=O)N[C@H](C(N)=O)CSCCC6=O)nn3)C(N)=O)NC1=O)C(=O)CCSC[C@H](NC(=O)[C@H](C)NC(C)=O)C(=O)N[C@@H]([C@@H](C)CC)C(=O)N[C@@H](CCC(=O)O)C(=O)N[C@@H](CCC(=O)O)C(=O)NCC(=O)N[C@@H](CCC(N)=O)C(=O)N[C@@H](Cc1ccc(O)cc1)C(=O)N2` is reported as 24 fold (Tumor necrosis factor receptor superfamily member 9/Nectin-4; reporter gene, agonist, luciferase reporter; CD137 Jurkat reporter with HT-1376; 6 h, geometric mean; reference: wells without compound).
The concentration of `NCc1cc2c(cc1F)C(=O)N(C1CCC(=O)NC1=O)C2` (centres unmarked) is reported as 1750 ng/mL and 1950 ng/mL (Amine oxidase [copper-containing] 3 (AOC3, Homo sapiens, UniProt Q16853); substrate, LC-MS/MS; cirrhotic human liver lysate; 15.63 µM, 60 min, pH 7.4).
The inhibition of `CCCN1CCCC[C@H]1C(=O)Nc1c(C)cccc1C` is reported as 44.7 ± 5.6% (SCN5A; Nav1.5 current; HEK stably transfected Nav1.5; 100 µM).
`COc1cc2c(CCNC(C)=O)c[nH]c2cc1O` gave a specific activity of 12 ± 0.49 nmol/min/mg (Sulfotransferase 1A3 (SULT1A3, Homo sapiens, UniProt P0DMM9); substrate, sulfation, purified enzyme; 10 µM, 10 min, pH 7.0, 37 °C).
`COc1cc(O)c(CC=C(C)C)c(O)c1C(=O)/C=C/c1ccc(O)cc1` gave an inhibition of less than 10% (CYP2B6 (human); enzyme activity, inhibitor; human liver microsomes; 1 µM, pH 7.4, with: bupropion).
`C=CC(=O)N1C[C@H](Nc2ncnc3[nH]ccc23)CC[C@@H]1C` has an AUC(0-inf) of 261 ng·h/mL (CYP; substrate; human, plasma; oral, single dose, with: rifampicin multiple doses once daily).
For `CCCC[C@@H]1NC(=O)[C@H](Cc2ccc(O)cc2)NC(=O)[C@@H]2CCCN2C(=O)[C@H](CC(=O)O)NC(=O)[C@H](C)NC(=O)[C@H](Cc2ccccc2)NC(=O)[C@@H]2CSCCC(=O)N3CN(CN(C3)C(=O)CCSC[C@@H](C(=O)N[C@@H](CNC(=O)CCOCCOCCOCCOCCOCCOCCOCCOCCOCCOCCOCCOCCn3cc(CCC(=O)NCCC(=O)N(C)CC(=O)N(C)CC(=O)N(C)CC(=O)N(C)CC(=O)N(C)CC(=O)N(C)CC(=O)N(C)CC(=O)N(C)CC(=O)N(C)CC(=O)N(C)CC(=O)N[C@H]4CSCCC(=O)N5CN6CN(C5)C(=O)CCSC[C@H](NC(=O)[C@@H](CC(=O)O)NC(=O)[C@H](Cc5cccc7ccccc57)NC(=O)[C@@H]5CCCN5C4=O)C(=O)N[C@@H](CCSC)C(=O)N[C@@H](CCCCNC(=N)N)C(=O)N[C@@H](CC(=O)O)C(=O)N[C@@H](Cc4c[nH]c5ccccc45)C(=O)N[C@@H](CO)C(=O)N[C@@H]([C@@H](C)O)C(=O)N4CCC[C@H]4C(=O)N4C[C@H](O)C[C@H]4C(=O)N[C@@H](Cc4c[nH]c5ccccc45)C(=O)N[C@H](C(N)=O)CSCCC6=O)nn3)C(N)=O)NC1=O)C(=O)CCSC[C@H](NC(=O)[C@H](C)NC(C)=O)C(=O)N[C@@H]([C@@H](C)CC)C(=O)N[C@@H](CCC(=O)O)C(=O)N[C@@H](CCC(=O)O)C(=O)NCC(=O)N[C@@H](CCC(N)=O)C(=O)N[C@@H](Cc1ccc(O)cc1)C(=O)N2`, the Emax was 25 fold (Tumor necrosis factor receptor superfamily member 9/Nectin-4; reporter gene, agonist, luciferase reporter; CD137 Jurkat reporter with HT-1376; 6 h, geometric mean; reference: wells without compound).
For `Cc1oc2ccccc2c1Cc1cc(I)c(OCC(=O)O)c(I)c1`, “inward tail current block” read 40 ± 3% (Voltage-gated inwardly rectifying potassium channel KCNH2 (KCNH2, Homo sapiens, UniProt Q12809); ion current, whole-cell patch clamp; HEK293 expressing hERG1; 10 µM, K+ 10 mM, after +40 mV).
`CCc1c2c(nc3ccc(O)cc13)-c1cc3c(c(=O)n1C2)COC(=O)[C@]3(O)CC` gave a Km of 31 ± 37.9 µM (UGT (mouse); glucuronidation, substrate; FVB mouse, liver S9 fraction; 30 min, pH 7.4).
For `CCCC[C@@H]1NC(=O)[C@H](Cc2ccc(O)cc2)NC(=O)[C@H](C)N(C)C(=O)[C@H](CC(=O)O)NC(=O)[C@H](C)NC(=O)[C@H](Cc2ccccc2)NC(=O)[C@@H]2CSCCC(=O)N3CN(CN(C3)C(=O)CCSC[C@H](NC(C)=O)C(=O)N[C@@H](CC(C)(C)C)C(=O)N3CCC[C@H]3C(=O)N[C@@H](CCC(=O)O)C(=O)N[C@H](CCCCNC(=O)CCc3cn(CCOCCOCCOCCN(CCOCCOCCOCCC(=O)N[C@H]4CSCCC(=O)N5CN6CN(C5)C(=O)CCSC[C@H](NC(=O)[C@@H](CC(=O)O)NC(=O)[C@H](Cc5cccc7ccccc57)NC(=O)[C@@H]5CCCN5C4=O)C(=O)N[C@@H](CCSC)C(=O)N[C@@H](CCCCNC(=N)N)C(=O)N[C@@H](CC(=O)O)C(=O)N[C@@H](Cc4c[nH]c5ccccc45)C(=O)N[C@@H](CO)C(=O)N[C@@H]([C@@H](C)O)C(=O)N4CCC[C@H]4C(=O)N4C[C@H](O)C[C@H]4C(=O)N[C@@H](Cc4c[nH]c5ccccc45)C(=O)N[C@H](C(N)=O)CSCCC6=O)CCOCCOCCOCCn4cc(CCC(=O)NCCCC[C@H]5NC(=O)[C@H](CCC(=O)O)NC(=O)[C@@H]6CCCN6C(=O)[C@H](CC(C)(C)C)NC(=O)[C@@H](NC(C)=O)CSCCC(=O)N6CN7CN(C6)C(=O)CCSC[C@H](NC(=O)[C@H](Cc6ccc(O)cc6)NC(=O)[C@@H]6CCCN6C5=O)C(=O)N[C@@H](Cc5ccccc5)C(=O)N[C@@H](C)C(=O)N[C@@H](CC(=O)O)C(=O)N(C)[C@@H](C)C(=O)N[C@@H](Cc5ccc(O)cc5)C(=O)N[C@@H](CCCC)C(=O)N[C@H](C(N)=O)CSCCC7=O)nn4)nn3)C(=O)N3CCC[C@H]3C(=O)N[C@@H](Cc3ccc(O)cc3)C(=O)N2)C(=O)CCSC[C@@H](C(N)=O)NC1=O`, the Emax was 76 fold (Tumor necrosis factor receptor superfamily member 9/Nectin-4; reporter gene, agonist, luciferase reporter; CD137 Jurkat reporter with HT-1376; 6 h, geometric mean; reference: wells without compound).
With `Cc1ccc2c(c1)C(=O)[C@]1(O)CCN(c3ccc4nc(C)ccc4c3)C1=N2.Cl` the inhibition was less than 25% (SCN5A; concentration not given).
`CC1(C)CCC2(CC1)N[C@@H](C(=O)N[C@@H]1CC[C@@H](C(N)=O)OC1)[C@H](c1ccnc(Cl)c1F)[C@]21C(=O)Nc2cc(Cl)ccc21` has a Papp(A-B) of 5.07 ×10⁻⁶ cm/s (ATP-dependent translocase ABCB1 (ABCB1, Homo sapiens, UniProt P08183); Caco-2; 1 µM, 120 min, with: elacridar 5 µM).
The Emax of `CCCC[C@@H]1NC(=O)[C@H](Cc2ccc(O)cc2)NC(=O)[C@@H]2CCCN2C(=O)[C@H](CC(=O)O)NC(=O)[C@H](C)NC(=O)[C@H](Cc2ccccc2)NC(=O)[C@@H]2CSCCC(=O)N3CN(CN(C3)C(=O)CCSC[C@@H](C(=O)N[C@@H](CNC(=O)CCc3cn(CCOCCOCCOCCOCCOCCOCCOCCOCCOCCOCCNC(=O)N[C@H]4CSCCC(=O)N5CN6CN(C5)C(=O)CCSC[C@H](NC(=O)[C@@H](CC(=O)O)NC(=O)[C@H](Cc5cccc7ccccc57)NC(=O)[C@@H]5CCCN5C4=O)C(=O)N[C@@H](CCSC)C(=O)N[C@@H](CCCCNC(=N)N)C(=O)N[C@@H](CC(=O)O)C(=O)N[C@@H](Cc4c[nH]c5ccccc45)C(=O)N[C@@H](CO)C(=O)N[C@@H]([C@@H](C)O)C(=O)N4CCC[C@H]4C(=O)N4C[C@H](O)C[C@H]4C(=O)N[C@@H](Cc4c[nH]c5ccccc45)C(=O)N[C@H](C(N)=O)CSCCC6=O)nn3)C(N)=O)NC1=O)C(=O)CCSC[C@H](NC(=O)[C@H](C)NC(C)=O)C(=O)N[C@@H]([C@@H](C)CC)C(=O)N[C@@H](CCC(=O)O)C(=O)N[C@@H](CCC(=O)O)C(=O)NCC(=O)N[C@@H](CCC(N)=O)C(=O)N[C@@H](Cc1ccc(O)cc1)C(=O)N2` is reported as 23 fold (Tumor necrosis factor receptor superfamily member 9/Nectin-4; reporter gene, agonist, luciferase reporter; CD137 Jurkat reporter with HT-1376; 6 h, geometric mean; reference: wells without compound).
`Cn1c(=O)c2c(ncn2C)n(C)c1=O` has a Cmax of 4280 ng/mL (Cytochrome P450 1A2 (CYP1A2, Homo sapiens, UniProt P05177); human, plasma; oral, 200 mg, day 1, alone, arithmetic mean).

Some of these lines once more:
`COc1cc(O)c(CC=C(C)C)c(O)c1C(=O)/C=C/c1ccc(O)cc1` gave an inhibition of less than 10% (CYP2B6 (human); enzyme activity, inhibitor; human liver microsomes; 1 µM, pH 7.4, with: bupropion).
For `CCCC[C@@H]1NC(=O)[C@H](Cc2ccc(O)cc2)NC(=O)[C@H](C)N(C)C(=O)[C@H](CC(=O)O)NC(=O)[C@H](C)NC(=O)[C@H](Cc2ccccc2)NC(=O)[C@@H]2CSCCC(=O)N3CN(CN(C3)C(=O)CCSC[C@H](NC(C)=O)C(=O)N[C@@H](CC(C)(C)C)C(=O)N3CCC[C@H]3C(=O)N[C@@H](CCC(=O)O)C(=O)N[C@H](CCCCNC(=O)CCc3cn(CCOCCOCCOCCN(CCOCCOCCOCCC(=O)N[C@H]4CSCCC(=O)N5CN6CN(C5)C(=O)CCSC[C@H](NC(=O)[C@@H](CC(=O)O)NC(=O)[C@H](Cc5cccc7ccccc57)NC(=O)[C@@H]5CCCN5C4=O)C(=O)N[C@@H](CCSC)C(=O)N[C@@H](CCCCNC(=N)N)C(=O)N[C@@H](CC(=O)O)C(=O)N[C@@H](Cc4c[nH]c5ccccc45)C(=O)N[C@@H](CO)C(=O)N[C@@H]([C@@H](C)O)C(=O)N4CCC[C@H]4C(=O)N4C[C@H](O)C[C@H]4C(=O)N[C@@H](Cc4c[nH]c5ccccc45)C(=O)N[C@H](C(N)=O)CSCCC6=O)CCOCCOCCOCCn4cc(CCC(=O)NCCCC[C@H]5NC(=O)[C@H](CCC(=O)O)NC(=O)[C@@H]6CCCN6C(=O)[C@H](CC(C)(C)C)NC(=O)[C@@H](NC(C)=O)CSCCC(=O)N6CN7CN(C6)C(=O)CCSC[C@H](NC(=O)[C@H](Cc6ccc(O)cc6)NC(=O)[C@@H]6CCCN6C5=O)C(=O)N[C@@H](Cc5ccccc5)C(=O)N[C@@H](C)C(=O)N[C@@H](CC(=O)O)C(=O)N(C)[C@@H](C)C(=O)N[C@@H](Cc5ccc(O)cc5)C(=O)N[C@@H](CCCC)C(=O)N[C@H](C(N)=O)CSCCC7=O)nn4)nn3)C(=O)N3CCC[C@H]3C(=O)N[C@@H](Cc3ccc(O)cc3)C(=O)N2)C(=O)CCSC[C@@H](C(N)=O)NC1=O`, the Emax was 76 fold (Tumor necrosis factor receptor superfamily member 9/Nectin-4; reporter gene, agonist, luciferase reporter; CD137 Jurkat reporter with HT-1376; 6 h, geometric mean; reference: wells without compound).
`Cn1cc(-c2ccc(-c3cncc(Cl)c3N3CCC4(CCNC4=O)CC3)cc2)cn1` — result for “log2 fold change”: -1.02 (COLO 205; gene expression, microarray, item: RSAD2 mRNA; concentration not given, 6 h; reference: untreated cells).
